Results from different studies.
Lines come from different studies, so protocols differ.
Technique: steady-state kinetics
B1: lpxA (Escherichia coli, UniProt P0A722); chain MIDKSAFVHPTAIVEEGASIGANAHIGPFCIVGPHVEIGEGTVLKSHVVVNGHTKIGRDNEIYQFASIGEVNQDLKYAGEPTRVEIGDRNRIRESVTIHRGTVQGGGLTKVGSDNLLMINAHIAHDCTVGNRCILANNATLAGHVSVDDFAIIGGMTAVHQFCIIGAHVMVGGCSGVAQDVPPYVIAQGNHATPFGVNIEGLKRRGFSREAITAIRNAYKLIYRSGKTLDEVKPEIAELAETYPEVKAFTDFFARSTRGLIR
B2: cyc1 L72V (Streptomyces coelicolor, UniProt Q9K499); chain MHAFPHGTTATPTAIAVPPSLRLPVIEAAFPRQLHPYWPKLQETTRTWLLEKRLMPADKVEEYADGLCYTDVMAGYYLGAPDEVLQAIADYSAWFFVWDDRHDRDIVHGRAGAWRRLRGLLHTALDSPGDHLHHEDTLVAGFADSVRRLYAFLPATWNARFARHFHTVIEAYDREFHNRTRGIVPGVEEYLELRRLTFAHWIWTDLLEPSSGCELPDAVRKHPAYRRAALLSQEFAAWYNDLCSLPKEIAGDEVHNLGISLITHHSLTLEEAIGEVRRRVEECITEFLAVERDALRFADELADGTVRGKELSGAVRANVGNMRNWFSSVYWFHHESGRYMVDSWDDRSTPPYVNNEAAGEK
B3: enzyme (Plasmodium falciparum, UniProt Q8IIG6); chain MTTYTLVLLRHGESTWNKENKFTGWTDVPLSEKGEEEAIAAGKYLKEKNFKFDVVYTSVLKRAICTAWNVLKTADLLHVPVVKTWRLNERHYGSLQGLNKSETAKKYGEEQVKIWRRSYDIPPPKLDKEDNRWPGHNVVYKNVPKDALPFTECLKDTVERVLPFWFDHIAPDILANKKVMVAAHGNSLRGLVKHLDNLSEADVLELNIPTGVPLVYELDENLKPIKHYYLLDSEELKKKMDEVANQGKAK
B4: sacB S173T (Priestia megaterium, UniProt D5DC07); chain KGNDSKDFNNSYGISHITRDNMVKIPQQQNSDQFKVPAFDESTIKNIASAKGKNASGNTIDLDVWDSWPLQNADGTVATYHGYQIVFALAGDPKDSNDTSVYLFYKKAGDKSIDSWKNAGRVFKDSDKFVPNDPHLKNQTQEWTGSGTLTKDGKVRLFYTDYSGKQYGKQTLTTAQVNMSQPNDNTLKVDGVEDYKSIFDGDGKIYQTVQQFIDEGGYDTGDNHTLRDPHYIEDNGHKYLVFEANTGTEDGYQGEDSLYNRAYYGGNNPFFQSEKKKLLEGSNKEKASLANGALGIIELNDDYTLKKVMKPLITSNTVTDEIERANIFKKDGKWYLFTDSRGSKMTIDGIGQDDVYMLGYVSNTLTGKYKPLNDTGLVLHMDLDPNDKTFTYSHFAVPQTKGDNVVITSYMTNRGFYEDNHSTFAPSFLVNIDGSKTSVVKDRVLEQGQLTVDED
B5: protein (Irpex lacteus, UniProt A0A510I1H7); chain QSQVWGQCGGIGWTGATTCVAGSVCTKSNDYYSQCIPGAAAPSSAPPASTPVSVPPSQPSGSSGGLANIPASKLTQFSNFGTNPNNVQMFVYKPKNVAANPPLIVASHYCSGTAQAYFTGSKFAQLAETYGYVVIFPSSPHSGTCWDVSSDETLMHDGGSDSLSIANAARFAISNWGVDPNRVFAVGTSSGAMMTSVLAGAYPDIFKAGIVDSGVAFGCFAVPGQPEDSWNSQCSEGQLVLTGQQWAQKVKNAFPGFTGTYPKMQVWHGTADTTLYPQNFFEEVKQWTTIFNYPSTPLSNVTQTNLGSNYHNATFGPNFQAILATGVGHTVPLFEQQYLQFLGIA
B6: protein (Sulfurisphaera tokodaii, UniProt Q96XE7); chain MIILAFDIFGTVLDTSTVIQEFRNKQLEYTWLLTIMGKYVEFEEITKITLRYILKVRGEESKFDEELNKWKNLKAYEDTKYLKEISEIAEVYALSNGSINEVKQHLERNGLLRYFKGIFSAESVKEYKPSPKVYKYFLDSIGAKEAFLVSSNAFDVIGAKNAGMRSIFVNRKNTIVDPIGGKPDVIVNDFKELYEWILRYK
B7: CoA persulfide reductase CDR-RHD (Enterococcus faecalis, UniProt A0ACD6TF65); chain MKIVIIGGVAGGMSAATRLRRLMEDAEIVVMEKGPFVSFANCGLPYYVSGEIAEREQLLVQTPEALKARFNLDVRPHHEVVAIDPIEKVITVKHETEILTEHYDKLILSPGAKPFVPPITGLAEAKNVFSLRNVPDLDQIMTALTPETKRAVVIGAGFIGLEMAENLQKRGLEVTLVEKAPHVLPPLDEEMAAFVKAELSKNNVQVITGQSAVAFEEEGQVIRLEDGQTLASDLTILSVGVQPENTLAVEAGVATGLRGGIVVDEHYQTNQPDIYAVGDAIVVKQQITQEDALISLASPANRQGRQVADVIAGLERKNQGSIGTAIVRVFDLTAASTGLSERAAKAAGLTTAVVHISGKDHAGYYPGATDLQLKLVFHPTTGEIYGAQGIGAKGVDKRIDILATAIKGQLTIFDLPELEFTYAPPFGSAKDPVNMLGYAAMNLVEGLSENVQWYELSNELAKGAVLLDVRNPAERANGQFKNAVSIPLNELRERLEELDKSTEYIVSCHSGLRSYIAERMLKQAGISAKNLDGAFALYRMVKPEELENV
UniProt G1UII1, sequence (whole entry, looked up): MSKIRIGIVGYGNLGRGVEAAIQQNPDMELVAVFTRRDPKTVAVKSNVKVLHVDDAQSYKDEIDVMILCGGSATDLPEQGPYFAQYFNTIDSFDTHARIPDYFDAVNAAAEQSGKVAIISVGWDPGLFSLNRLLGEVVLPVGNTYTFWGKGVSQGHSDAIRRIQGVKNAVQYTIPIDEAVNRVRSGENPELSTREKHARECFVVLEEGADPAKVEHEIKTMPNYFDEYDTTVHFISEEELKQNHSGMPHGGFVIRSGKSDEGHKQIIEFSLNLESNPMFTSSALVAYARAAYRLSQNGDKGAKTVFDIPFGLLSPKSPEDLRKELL
UniProt O60656, sequence (whole entry, looked up): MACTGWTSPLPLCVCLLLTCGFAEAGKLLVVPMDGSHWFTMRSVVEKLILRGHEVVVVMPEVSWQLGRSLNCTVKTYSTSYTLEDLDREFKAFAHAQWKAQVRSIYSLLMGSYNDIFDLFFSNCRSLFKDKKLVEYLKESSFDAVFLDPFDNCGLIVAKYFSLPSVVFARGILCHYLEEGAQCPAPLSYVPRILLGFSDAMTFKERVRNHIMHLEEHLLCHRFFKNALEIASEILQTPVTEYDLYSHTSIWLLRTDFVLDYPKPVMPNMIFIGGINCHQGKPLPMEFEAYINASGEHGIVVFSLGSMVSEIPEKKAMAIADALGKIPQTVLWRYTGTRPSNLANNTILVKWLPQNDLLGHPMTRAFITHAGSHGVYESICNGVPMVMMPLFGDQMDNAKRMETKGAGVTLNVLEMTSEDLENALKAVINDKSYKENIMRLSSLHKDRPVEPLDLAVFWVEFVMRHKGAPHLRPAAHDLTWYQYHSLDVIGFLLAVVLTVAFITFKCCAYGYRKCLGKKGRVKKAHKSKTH
UniProt P05181, sequence (whole entry, looked up): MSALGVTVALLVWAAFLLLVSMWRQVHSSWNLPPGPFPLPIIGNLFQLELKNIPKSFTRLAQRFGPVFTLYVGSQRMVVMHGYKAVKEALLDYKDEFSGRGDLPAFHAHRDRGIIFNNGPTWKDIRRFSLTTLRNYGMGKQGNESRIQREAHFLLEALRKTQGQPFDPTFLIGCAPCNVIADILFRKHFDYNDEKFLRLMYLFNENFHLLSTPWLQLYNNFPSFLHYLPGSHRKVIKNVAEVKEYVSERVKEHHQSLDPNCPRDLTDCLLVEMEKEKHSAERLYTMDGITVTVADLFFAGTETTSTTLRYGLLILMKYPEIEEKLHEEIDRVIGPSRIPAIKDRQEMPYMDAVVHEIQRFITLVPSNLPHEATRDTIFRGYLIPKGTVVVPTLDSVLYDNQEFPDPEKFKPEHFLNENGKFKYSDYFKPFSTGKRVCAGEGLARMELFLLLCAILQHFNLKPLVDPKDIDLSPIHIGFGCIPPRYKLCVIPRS
UniProt P07914, sequence (whole entry, looked up): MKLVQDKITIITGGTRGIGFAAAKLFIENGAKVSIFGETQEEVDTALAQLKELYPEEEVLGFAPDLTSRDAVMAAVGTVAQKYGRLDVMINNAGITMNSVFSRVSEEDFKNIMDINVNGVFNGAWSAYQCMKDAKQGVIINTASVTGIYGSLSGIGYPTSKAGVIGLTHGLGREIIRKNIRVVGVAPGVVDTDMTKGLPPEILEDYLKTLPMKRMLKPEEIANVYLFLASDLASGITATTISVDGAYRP

`UGT1A9 (Homo sapiens, UniProt O60656)` has a Vmax of 0.000794 µmol/min/mg (Oc1ccc([C@H]2COc3cc(O)ccc3C2)cc1; pH 7.4, 37 °C).
`B1 (lpxA)` gave a Km of 600 µM (CC(=O)N[C@H]1[C@@H](OP(=O)(O)OP(=O)(O)OC[C@H]2O[C@@H](n3ccc(=O)[nH]c3=O)[C@H](O)[C@@H]2O)O[C@H](CO)[C@@H](O)[C@@H]1O; pH 8, 25 °C, with: R-3-hydroxymyristoyl-ACP 40 µM).
For `protein (Zea mays, UniProt A0A2H4PMI3)`, the Km was 84 µM (O=CCCCC(=O)O; pH 7.5, 30 °C, substrate inhibition, with: NAD+ 3.0 mM).
`B2 (cyc1 L72V)` has a Km of 0.6 µM (CC(C)=CCC/C(C)=C/CC/C(C)=C/CO[P@@](=O)(O)OP(=O)(O)O; pH 6.5, 30 °C, with: MgCl2 10 mM).
The Km of `B3 (enzyme)` is reported as 182 µM (O=C(O)[C@H](O)COP(=O)(O)O; pH 7.5, 37 °C).
With `alanine aminopeptidase (Neisseria meningitidis, UniProt Q9JYV4)` the Km was 59.9 µM (NC(=O)Cc1cc(=O)oc2cc(NC(=O)[C@@H](N)CCCCOCc3ccccc3)ccc12; pH 7.5, 37 °C).
`B4 (sacB S173T)` has a Km of 41800 µM (OC[C@H]1O[C@@](CO)(O[C@H]2O[C@H](CO)[C@@H](O)[C@H](O)[C@H]2O)[C@@H](O)[C@@H]1O; pH 6.6).
`B5 (protein)` has a Km of 400 µM (CC(=O)Oc1ccc2c(C)cc(=O)oc2c1; pH 6, 30 °C).
`ddh (Ureibacillus thermosphaericus, UniProt G1UII1)` gave a Km of 3070 µM (O=C(O)C(=O)Cc1ccccc1; pH 9, 30 °C, reductive amination, with: NH4Cl 200 mM, NADPH 0.5 mM).
With `CYP2E1 (Homo sapiens, UniProt P05181)` the Km was 39.4 µM (C=Cc1ccc(Cl)cc1; pH 7.4, 37 °C).
`B6 (protein)` has a Km of 1250 µM (C[C@H](Cl)C(=O)O; pH 9.5, 70 °C).
`BaiA1 (Clostridium scindens, UniProt P07914)` gave a Km of 106 µM (C[C@H](CCC(=O)SCCNC(=O)CCNC(=O)[C@H](O)C(C)(C)COP(=O)(O)OP(=O)(O)OC[C@H]1O[C@@H](n2cnc3c(N)ncnc32)[C@H](O)[C@@H]1OP(=O)(O)O)[C@H]1CC[C@H]2[C@@H]3[C@H](O)C[C@@H]4C[C@H](O)CC[C@]4(C)[C@H]3C[C@H](O)[C@]12C; pH 8.7, 37 °C, with: NAD+).
`enzyme (Actinoalloteichus caeruleus, UniProt M1F4W9)` gave a Km of 440 µM (CSc1c(O)cc(-c2ccccn2)nc1C(=O)N[C@@H](CC(C)C)C(=O)O; pH 8, 30 °C).
For `B7`, the Km was 111 µM (CC(C)(COP(=O)(O)OP(=O)(O)OC[C@H]1O[C@@H](n2cnc3c(N)ncnc32)[C@H](O)[C@@H]1OP(=O)(O)O)[C@@H](O)C(=O)NCCC(=O)NCCSS; pH 8, 25 °C, NaCl 200 mM, with: FAD 100 nM, NADH 100 µM).

Some of these lines once more:
With `alanine aminopeptidase (Neisseria meningitidis, UniProt Q9JYV4)` the Km was 59.9 µM (NC(=O)Cc1cc(=O)oc2cc(NC(=O)[C@@H](N)CCCCOCc3ccccc3)ccc12; pH 7.5, 37 °C).
